Experimental data from different studies.
Values joined by “and” are separate records of one study, mostly repeats; a detail may differ. Numbers after ± are the reported error.

Compound | target or system | assay | test system | setting | scale | measurement | value
COc1ccc2nccc(Cc3cccc(-c4cnn(C5COC5)c4)c3)c2c1 | A549 | mitochondrial oxygen consumption, Seahorse XF96 |  | 10 µM |  | inhibition | 86%
Cc1cc2nc3c(=O)[nH]c(=O)nc-3n(C[C@H](O)[C@H](O)[C@H](O)CO)c2cc1C |  | binding, equilibrium dialysis LC-MS |  | 5 µM, thermostabilized A2AR-BRIL construct | reference: no-protein control, direction not given | z-scored log2 fold change | -0.0567
C=C(c1ccc(O)c(Oc2cc3c(cc2OC)CCN(C)[C@@H]3Cc2ccc(OC)cc2)c1)[C@@H]1c2cc(O)c(OC)cc2CCN1C | 3T3-L1 | adipocyte lipid accumulation, Nile Red staining |  | 2.5 µM |  | inhibition | 11 ± 0.8%
COc1cc(C(=O)NS(=O)(=O)c2ccccc2C)ccc1Cc1cn(C)c2ccc(NC(=O)OC3CCCC3)cc12 | human washed platelets | MPB labelling, measured: platelet surface thiols |  | 20 µM, together with: collagen |  | inhibition | 17.4%
COc1cc2nccc(Oc3ccc(NC(=O)NC4CC4)c(Cl)c3)c2cc1C(N)=O | NLRP3 inflammasome (mouse) |  | mouse BMDM | 10 µM |  | inhibition | -21.6%
COc1cc2c(cc1O)C(Cc1ccc(O)c(-c3c(O)c(OC)cc4c3C(Cc3ccc(O)cc3)N(C)CC4)c1)N(C)CC2 (stereo not shown) | 3T3-L1 | adipocyte lipid accumulation, Nile Red staining |  | 100 µM |  | inhibition | 1.4 ± 0.8%
c1ccc(-c2cccc(Cc3ccnc4ccc(C5COC5)cc34)c2)cc1 | A549 | mitochondrial oxygen consumption, Seahorse XF96 |  | 10 µM |  | inhibition | 23%
COc1ccc(C[C@@H]2c3cc(Oc4cc(C[C@@H]5c6cc(O)c(OC)cc6CCN5C)ccc4O)c(OC)cc3CCN2C)cc1 | 3T3-L1 | adipocyte lipid accumulation, Nile Red staining |  | 5 µM |  | inhibition | 29.1 ± 0.7%
Cc1nn(-c2nc3c(F)cc(F)cc3s2)c(O)c1C(c1ccc(C(F)(F)F)cc1)c1c(C)nn(-c2nc3c(F)cc(F)cc3s2)c1O | THP1-Dual | IFN luciferase reporter |  | 5 µM, together with: HT-DNA |  | inhibition | 5.08% and 9.85% and 6.78% and 7.88% and 11% and 5.13%
COc1cc2ncnc(Cc3cccc(-c4ccccn4)c3)c2cc1OC | A549 | mitochondrial oxygen consumption, Seahorse XF96 |  | 10 µM |  | inhibition | 10%
C=CC(=O)N1CCC[C@@H](n2nc(-c3ccc(Oc4ccccc4)cc3)c3c(N)ncnc32)C1 | TMD8 RAC2 knockout | calcium flux, FLIPR |  | concentration not given, 4 h preincubation |  | inhibition | 101%
Cc1cc(-c2nc(-c3ccc(OC(F)(F)F)cc3)no2)nn1Cc1ccnc(N2CCN(C3CC3)CC2)c1 | H460 | CellTiter-Glo, measured: mitochondrial ATP |  | 1e-05 µM | reference: vehicle | inhibition | > 50%
COc1ccc(C[C@@H]2c3cc(Oc4cc(C[C@H]5c6cc(OC)c(OC)cc6CCN5C)ccc4O)c(OC)cc3CCN2C)cc1 | 3T3-L1 | adipocyte lipid accumulation, Nile Red staining |  | 1 µM |  | inhibition | 15.7 ± 0.3%
O=c1ncccn1[C@@H]1O[C@H](CO)[C@@H](O)[C@H]1O | MEC1 | cell proliferation, hemacytometer cell count |  | 200 µM, 48 h pretreatment, together with: external beam irradiation 2 Gy |  | inhibition | ~50%
CC(=O)NCCCC[C@H](N)C(=O)O |  | binding, equilibrium dialysis LC-MS |  | 5 µM, thermostabilized A2AR-BRIL construct | reference: no-protein control, direction not given | z-scored log2 fold change | 0.14
C=CC(=O)Nc1cccc(Oc2nc(Nc3ccc(N4CCN(C)CC4)cc3)nc3ccoc23)c1 | TMD8 RAC2 knockout | calcium flux, FLIPR |  | concentration not given, 4 h preincubation |  | inhibition | 67.2%
COc1ccc(C(=O)c2nccc3cc(OC)c(OC)cc23)cc1 | A549 | mitochondrial oxygen consumption, Seahorse XF96 |  | 10 µM |  | inhibition | 15%
C=CC(=O)N1CCC([C@@H]2CCNc3c(C(N)=O)c(-c4ccc(Oc5ccccc5)cc4)nn32)CC1 | TMD8 RAC2 knockout | calcium flux, FLIPR |  | concentration not given, 4 h preincubation |  | inhibition | 99%
COc1ccc2nccc(Cc3cccc(-c4ccc(C(=O)O)cc4)c3)c2c1 | A549 | mitochondrial oxygen consumption, Seahorse XF96 |  | 10 µM |  | inhibition | 3%
C=CC(=O)N1CCC[C@@H](c2ccc(C(N)=O)c3[nH]ccc23)C1 | TMD8 RAC2 knockout | calcium flux, FLIPR |  | concentration not given, 2 h preincubation |  | inhibition | 69.8%
COc1ccc(C[C@@H]2c3cc(Oc4cc(/C=C5\CN(C)CCc6cc(OC)c(OC)cc65)ccc4O)c(OC)cc3CCN2C)cc1 | 3T3-L1 | adipocyte lipid accumulation, Nile Red staining |  | 10 µM |  | inhibition | 27.6 ± 1.8%
CC#CC(=O)N1CCC[C@H]1c1nc(-c2ccc(C(=O)Nc3ccccn3)cc2)c2c(N)nccn12 | TMD8 RAC2 knockout | calcium flux, FLIPR |  | concentration not given, 4 h preincubation |  | inhibition | 98.5%
COc1cc2ncnc(Cc3cccc(-c4ccccc4)c3C)c2cc1OC | A549 | mitochondrial oxygen consumption, Seahorse XF96 |  | 10 µM |  | inhibition | 32%
C[C@H]1CN(C2COC2)CCN1c1ccc(Nc2cc(-c3ccnc(N4CCn5c(cc6c5CC(C)(C)C6)C4=O)c3CO)cn(C)c2=O)nc1 | TMD8 RAC2 knockout | calcium flux, FLIPR |  | concentration not given, 2 h preincubation |  | inhibition | 99.5%
COc1cc2c(cc1OC)[C@@H](Cc1ccc(O)c(Oc3cc4c(cc3OC)CCN(C)[C@@H]4Cc3ccc(O)cc3)c1)N(C)CC2 | 3T3-L1 | adipocyte lipid accumulation, Nile Red staining |  | 20 µM |  | inhibition | 35 ± 1.1%
COc1cc2ncnc(Cc3ccnc(-c4ccccc4)c3)c2cc1OC | A549 | mitochondrial oxygen consumption, Seahorse XF96 |  | 10 µM |  | inhibition | 0%
CC[C@H](C)C(=O)O[C@H]1C[C@@H](C)C=C2C=C[C@H](C)[C@H](CC[C@@H]3C[C@@H](O)CC(=O)O3)[C@H]21 | 3T3-L1 | adipocyte lipid accumulation, Nile Red staining |  | 5 µM |  | inhibition | 24.3 ± 0.7%
COc1ccc2c(Cc3cccc(-c4ccccc4)c3)ccnc2c1 | A549 | mitochondrial oxygen consumption, Seahorse XF96 |  | 10 µM |  | inhibition | 61%

For quick reference, copied from above:
Compound | target or system | assay | test system | setting | scale | measurement | value
C=CC(=O)N1CCC([C@@H]2CCNc3c(C(N)=O)c(-c4ccc(Oc5ccccc5)cc4)nn32)CC1 | TMD8 RAC2 knockout | calcium flux, FLIPR |  | concentration not given, 4 h preincubation |  | inhibition | 99%
COc1ccc2nccc(Cc3cccc(-c4ccc(C(=O)O)cc4)c3)c2c1 | A549 | mitochondrial oxygen consumption, Seahorse XF96 |  | 10 µM |  | inhibition | 3%
C=CC(=O)N1CCC[C@@H](c2ccc(C(N)=O)c3[nH]ccc23)C1 | TMD8 RAC2 knockout | calcium flux, FLIPR |  | concentration not given, 2 h preincubation |  | inhibition | 69.8%
COc1ccc(C[C@@H]2c3cc(Oc4cc(/C=C5\CN(C)CCc6cc(OC)c(OC)cc65)ccc4O)c(OC)cc3CCN2C)cc1 | 3T3-L1 | adipocyte lipid accumulation, Nile Red staining |  | 10 µM |  | inhibition | 27.6 ± 1.8%
